Assay results of several laboratories.
Lines come from different studies, so protocols differ. Several values in a cell are separate wells, animals, samples, runs or records. ± marks the error that the study gave.

COc1ccc2nc3cc(Cl)ccc3c(Nc3cc(CN4CCCC4)c(O)c(CN4CCCC4)c3)c2n1 gave a lymphocytes of 57.9% (mouse, blood; intraperitoneal, 57 mg/kg).
O=C(Nc1ccccc1)C1CCN(C(=O)Oc2cccnc2)CC1 — result for “subjects with tremor”: 7.7% (adverse event reporting; healthy women; oral, 100 mg).
C[C@]1(CO)Cc2ncn(-c3ccc(C#N)c(Cl)c3)c2C(=O)O1 has a TEAE incidence of 25% (human; concentration not given, European food-effect part).
For CC(=O)N(C)[C@H]1CCN(C(=O)c2cnc3c(c2)C[C@](C)(c2ccc(F)cc2)N3)C1, “adverse event duration” read 11 days (measured: fractured finger; human; oral, dose not given, together with: midazolam).
Clc1cc(Cl)c(-c2cc(Cl)c(Cl)cc2Cl)cc1Cl — result for “literature range factor”: 6 (polyethylene-water partitioning; PCB compilation; baseline: maximum over minimum K).
COc1ccc(-c2c(-c3ccc(C#N)c(F)c3)nc(N3CCC(N)CC3)n(C)c2=O)cc1F — result for “serious TEAE incidence”: 2% (measured: duodenal obstruction; human patients; oral, dose not given, dose escalation).
For CCOc1cc(Oc2ccc(C(F)(F)F)cc2Cl)ccc1[N+](=O)[O-], “body weight gain” read 63.5% (rat male; 7.5 mg/kg, 8 days).
The IC50 of CCCN(CCC)[C@H]1CCc2c(F)ccc(O)c2C1 is reported as 2.51 µM (Plasmodium falciparum; D10).
COc1ccnc(C(=O)N[C@H]2COC(=O)[C@H](Cc3ccccc3)[C@@H](OC(=O)C(C)C)[C@H](C)OC2=O)c1OCOC(=O)C(C)C has a DT50 of 1.4 days (aerobic dark soil incubation; sandy loam soil; 20 °C, persistence endpoint).
C=CCNc1c(O)cc2c(O)c1C[C@@H](C)C[C@H](OC)[C@H](O)[C@@H](C)/C=C(\C)[C@H](OC(N)=O)[C@@H](OC)/C=C\C=C(/C)C(=O)N2: “patients with fatigue TEAE” 67% (unresectable or metastatic STS, GIST, other; intravenous, 300 mg/m^2).
O=C(O)CCCOc1ccc(F)cc1-c1cc(-c2ccccc2C(F)(F)F)n(-c2ccccc2)n1 gave a leukocyte differential of 0.3 ± 0.1% (measured: Basophils; Crl:CD(SD) rats, female, blood; iv, 25 µg/kg, 1 day).
For CC/C(=C(\c1ccccc1)c1ccc(OCCN(C)C)cc1)c1ccccc1, the Tmax was 2 h (CD-1 mouse, male, lung; intraperitoneal, 3 mg/kg).
Under “patients with Nausea TEAE”, C[C@]1(O)C[C@@](N)(c2ccc(-c3nc4n(c3-c3ccccc3)COc3ccncc3-4)cc2)C1 is recorded as 11.1% (human, advanced or metastatic solid tumours; once daily, dose escalation total, any grade).
For [O-][S+]1CCc2nc(N3CCC(c4ncc(Cl)cn4)CC3)nc(NC3(CO)CCC3)c21 (stereo not shown), “adverse event incidence” read 0% (measured: Nausea; healthy male humans; 48 mg single dose).
For CC1(C)C(/C=C(\Cl)C(F)(F)F)C1C(=O)OC(C#N)c1cccc(Oc2ccccc2)c1 (stereo not shown), the CLint was 546 µL/min/mg (pooled human liver cytosol).
CC(C)C[C@@H]1NC(=O)CNC(=O)[C@H](CC(N)=O)NC(=O)[C@H](CCCNC(=N)N)NC(=O)[C@H]([C@@H](C)O)NC(=O)[C@@H]2CSSC[C@@H]3NC(=O)[C@H](CCCCN)NC(=O)CNC(=O)CNC(=O)[C@H](C(C)C)NC(=O)[C@@H]4CSSC[C@H](NC(=O)[C@H]([C@@H](C)O)NC(=O)[C@H](CSSC[C@H](NC(=O)[C@H](C(C)C)NC(=O)[C@@H]5CCCN5C1=O)C(=O)NCC(=O)N[C@@H](CCC(=O)O)C(=O)N[C@@H]([C@@H](C)O)C(=O)N4)NC(=O)CNC(=O)[C@@H]1CCCN1C(=O)[C@H]([C@@H](C)O)NC(=O)[C@H](CC(N)=O)NC3=O)C(=O)N[C@@H](CO)C(=O)N[C@@H](Cc1c[nH]c3ccccc13)C(=O)N1CCC[C@H]1C(=O)N[C@@H](C(C)C)C(=O)N2 has a remaining peptide of 49.8 ± 6.2% (HPLC; ammonium bicarbonate 0.1 M; 180 µM, 14 days, pH 9.0, 37 °C, deamidation stability).
For CO[C@H]1C[C@@H]2CC[C@@H](C)[C@@](O)(O2)C(=O)C(=O)N2CCCC[C@H]2C(=O)O[C@H]([C@H](C)C[C@@H]2CC[C@@H](OC(=O)NCCOCCOCCOCCOCCOCCOCCOCCOCCC(=O)N3CCc4cc(Cn5nc(-c6ccc7oc(N)nc7c6)c6c(N)ncnc65)ccc4C3)[C@H](OC)C2)C[C@@H](O)[C@H](C)/C=C(\C)[C@@H](O)[C@@H](OC)C(=O)[C@H](C)C[C@H](C)/C=C/C=C/C=C/1C, “incidence of Fatigue TEAE” read 60% (patients with advanced solid tumours; intravenous, 1.6 mg/3 mg weekly, any grade).
C[C@@H]1NC(=O)[C@H](CCCCNC(=O)CO/N=C/C(=O)NCCCC[C@@H]2NC(=O)[C@@H](Cc3ccccc3)NC(=O)[C@H](CC(=O)O)NC(=O)CNC(=O)[C@H](CCCNC(=N)N)NC2=O)NC(=O)CNC(=O)[C@@H]2CCCN2C(=O)[C@H](CCCCNC(=O)CO/N=C/C(=O)NCCCC[C@@H]2NC(=O)[C@@H](Cc3ccccc3)NC(=O)[C@H](CC(=O)O)NC(=O)CNC(=O)[C@H](CCCNC(=N)N)NC2=O)NC(=O)[C@H](CCCCNC(=O)CN2CCCNCCNCCCNCC2)NC(=O)[C@H](CCCCNC(=O)CO/N=C/C(=O)NCCCC[C@@H]2NC(=O)[C@@H](Cc3ccccc3)NC(=O)[C@H](CC(=O)O)NC(=O)CNC(=O)[C@H](CCCNC(=N)N)NC2=O)NC(=O)CNC(=O)[C@@H]2CCCN2C(=O)[C@H](CCCCNC(=O)CO/N=C/C(=O)NCCCC[C@@H]2NC(=O)[C@@H](Cc3ccccc3)NC(=O)[C@H](CC(=O)O)NC(=O)CNC(=O)[C@H](CCCNC(=N)N)NC2=O)NC1=O [copper-64 labelled] has a tissue uptake of 0.77 ± 0.07 %ID/g (normal mice, heart; intravenous, 0.74 MBq, 3 h post-injection).
O=S(=O)(Nc1ccccc1)c1ccc(NC(=S)Nc2ccccc2)cc1 — result for “blood chemistry level”: 0.7 mg/dL (measured: TBIL; female mouse, blood; oral, 5 mg/kg daily, 14 days).
For COc1cc2c(Oc3ccc4[nH]c(C)cc4c3F)ccnc2cc1OCC1(N)CC1, “grade 3 Hypothyroidism” read 0% (paediatric recurrent refractory sarcoma; concentration not given, whole group).
CC(C)C[C@@H]1NC(=O)CNC(=O)[C@H](CC(N)=O)NC(=O)[C@H](CCCNC(=N)N)NC(=O)[C@H]([C@@H](C)O)NC(=O)[C@@H]2CSSC[C@@H]3NC(=O)[C@H]([C@@H](C)O)NC(=O)[C@H](CCCCN)NC(=O)CNC(=O)[C@H](C(C)C)NC(=O)[C@@H]4CSSC[C@H](NC(=O)[C@H]([C@@H](C)O)NC(=O)[C@H](CSSC[C@H](NC(=O)[C@H](C(C)C)NC(=O)[C@@H]5CCCN5C1=O)C(=O)NCC(=O)N[C@@H](CCC(=O)O)C(=O)N[C@@H]([C@@H](C)O)C(=O)N4)NC(=O)CNC(=O)[C@@H]1CCCN1C(=O)[C@H]([C@@H](C)O)NC(=O)[C@H](CC(N)=O)NC3=O)C(=O)N[C@@H](CO)C(=O)N[C@@H](Cc1c[nH]c3ccccc13)C(=O)N1CCC[C@H]1C(=O)N[C@@H](C(C)C)C(=O)N2 gave a remaining peptide of 51.9 ± 7.3% (HPLC; ammonium bicarbonate 0.1 M; 180 µM, 14 days, pH 9.0, 37 °C, deamidation stability).
N=C(N)NCCC[C@@H](NC(=O)[C@@H](N)Cc1ccccc1)C(=O)N[C@@H](Cc1ccccc1)C(=O)N[C@@H](CCCCN)C(N)=O — result for “mean fraction excreted in urine”: 8.14% (LC-MS; human; 15 mg, 11.83 h).
Cn1cc(-c2nc(N[C@@H]3CCCC[C@@H]3N)c(F)c3c2C(=O)NC3)cn1 — result for “hemorrhagic adverse events”: 20% (measured: Gastrointestinal haemorrhage; patients with relapsed or refractory AML; oral, 140 mg once daily).
The decreased WBC of C[C@@H](NC(=O)N1C(=O)[C@H](Cc2ccnc(N)c2)[C@H]1C(=O)O)C1CCCCC1 is reported as 25% (healthy Chinese adults; continuous intravenous infusion, 0.3 mg/kg/h, 5.0 days).
COc1cc2c(cc1C(F)(F)F)N(C(=O)Nc1cc(F)cc(-c3cccnc3)c1)CC2 gave an IC50 of 1.58 µM (Plasmodium falciparum; 7G8).
CN1CCN(c2ccc(Nc3nccc(-c4cccc(F)c4)n3)cc2C(F)(F)F)CC1 gave a toxicity of 0% (zebrafish embryos; 25 µM, 5 d).
CCc1ccc(CC/C=C/c2ccc3c(c2)C(=O)CC3)cc1 has an Erythrocyte percentage of 13.3% (Sprague-Dawley rat, male; oral, 30 mg/kg/day, 14 days).
For CN(C(=O)n1cnc(-c2ccc[n+]([O-])c2)c1)C1CCCCC1, the concentration was 388 ± 43.2 ng/g (Wistar rat, hippocampus; oral, 10 mg/kg, 1 h, single dose).
The log K(PDMS-water) of c1cc2ccc3ccc4ccc5cccc6c(c1)c2c3c4c56 is reported as 5.56 ± 0.05 (fresh water; 12 (unit not given), 20 °C, S100 sampler, 100 µm).
With CN[C@H]1CC[C@@H](c2ccc(Cl)c(Cl)c2)c2ccccc21 the Tmax was 0.5 h (CD-1 mouse, male, lung; intraperitoneal, 3 mg/kg).
The log K(PDMS-water) of c1ccc2c(c1)cc1ccc3cccc4ccc2c1c34 is reported as 5.21 ± 0.05 (fresh water; 12 (unit not given), 20 °C, S30-1 sampler, 30 µm).
C=CC(=O)Nc1cc(Nc2nccc(Nc3cc(Cl)c(F)cc3C(C)(C)O)n2)c(OC)cc1N1CC[C@@H](N(C)C)C1: “patients with hypokalaemia” 0% (human patients; oral, 200 mg, treatment-emergent adverse events).
The body weight of N.N.[Cl][Pt][Cl] is reported as 23 g and 21 g and 22 g and 20 g and 24 g (mouse xenograft model; dose not given, day 6).
Clc1ccc(-c2cc(Cl)c(Cl)c(Cl)c2)cc1Cl has a log K(PDMS-water) of 5.97 ± 0.04 (fresh water; 20 °C, S100 sampler, 100 µm).
CC(C)[C@@H]1NC(=O)CNC(=O)[C@H](CC(N)=O)NC(=O)[C@H](CCCNC(=N)N)NC(=O)[C@H](Cc2ccc(O)cc2)NC(=O)[C@H](C(C)C)NC(=O)[C@@H](NC(=O)[C@@H](NC(=O)[C@H](CC(N)=O)NC(=O)[C@H](Cc2c[nH]c3ccccc23)NC(=O)[C@H](C)NC(=O)[C@H](Cc2ccccc2)NC(=O)CN)C(C)C)CSSC[C@@H](C(=O)N[C@@H](Cc2cnc[nH]2)C(=O)N[C@@H](CCCNC(=N)N)C(=O)N[C@@H](CCCNC(=N)N)C(=O)N[C@@H](C)C(=O)N[C@@H](CC(N)=O)C(N)=O)NC(=O)[C@H](C(C)C)NC(=O)[C@H](CCCNC(=N)N)NC1=O gave an eosinophils of 2.15 ± 0.11% (ICR mice, blood; intraperitoneal, 5 mg/kg, day 5).
For O[C@H]1CCCN[C@@H]1CCCn1cnc2c(Cl)c(Cl)ccc21, the median AUCtau was 1510 ng·h/mL (healthy CYP2D6 intermediate metabolizers, plasma; oral, 150 mg multiple doses).
With CC(C)CC(=O)OC[C@H]1O[C@@](C#N)(c2ccc3c(N)ncnn23)[C@H](O)[C@@H]1O the unbound fraction was 0.164 (mouse plasma; 0.9 to 90 µM, mean over concentrations).
For c1cc(-c2ccc3ncnc(Nc4ncco4)c3c2)cc(N2C[C@H]3C[C@@H]2CO3)c1, the CLint was 47 µL/min/mg (human liver microsomes).
O=C(O)CCC(CP(=O)(O)O)C(=O)O (stereo not shown) has a relative error of -7.14% (rat, plasma; 4 µg/mL, 28 days, -80 °C, long-term stability; baseline: nominal concentration).
For CC(=O)c1c(C)c2cnc(Nc3ccc(C4CCN(CCS(C)(=O)=O)CC4)cn3)nc2n(C2CCCC2)c1=O, the half-life was 6.64 h (beagle dog, both sexes, fasted, blood; oral gavage, 15 mg/kg, acidified methylcellulose vehicle).
